# Measurements collected from several papers.
# Parts stem from different laboratories: compare values within a part only.

# Study 1
# Target: Centromere-binding protein 1, full length, His-tagged (CBF1, Saccharomyces cerevisiae, UniProt P17106, residues 1-351)
# UniProt P17106, sequence (whole entry, looked up): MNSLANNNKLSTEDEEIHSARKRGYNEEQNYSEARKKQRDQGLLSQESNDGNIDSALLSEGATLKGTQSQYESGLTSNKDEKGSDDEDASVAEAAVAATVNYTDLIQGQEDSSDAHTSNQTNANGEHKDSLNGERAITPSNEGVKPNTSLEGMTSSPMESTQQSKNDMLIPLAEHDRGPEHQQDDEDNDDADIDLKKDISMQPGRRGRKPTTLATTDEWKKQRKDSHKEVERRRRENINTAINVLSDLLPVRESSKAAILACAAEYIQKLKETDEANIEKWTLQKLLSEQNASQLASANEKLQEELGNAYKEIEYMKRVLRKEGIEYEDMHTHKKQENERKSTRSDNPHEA
# Method: competition protein-binding microarray
# Form: double-stranded DNA, one strand shown
# Medium: in vitro
# Tested at: 2 µM
# Setting: whole 60-bp probe, lowest competitor level
# With: Pho4 competitor, 0.05 µM
# Direction: higher = stronger binding
Strand,fluorescence intensity [a.u.]
AGCGATACGACAATTTTCGTGGGTATAGACTTCACCGTCTTGATTCGCTTGACGCTGCTG,71.2
CTAACGAAGGTTTGTCACTCCACTTACAAGCCAAGTGTCTTGATTCGCTTGACGCTGCTG,88
TCGAGAGATAAAGTACATGTGCCTAGGTAAGCTGTAGTCTTGATTCGCTTGACGCTGCTG,133
CTAACGAAGGTTTGTGTTGTGGGTGACAAGCCAAGTGTCTTGATTCGCTTGACGCTGCTG,80.6

# Study 2
# Target: Histone acetyltransferase KAT6A, winged helix 1, GST fusion (KAT6A, Homo sapiens, UniProt Q92794, residues 1-85)
# Method: protein binding microarray
# Form: double-stranded DNA, one strand shown
# Medium: in vitro
# Tested at: not given
# Setting: 8-mer, flanks averaged, mean of 2 arrays, mostly near background
# Reference: not given
# Direction: higher = stronger binding
# Construct (chain): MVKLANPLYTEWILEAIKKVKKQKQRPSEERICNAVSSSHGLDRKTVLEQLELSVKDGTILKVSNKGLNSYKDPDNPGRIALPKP
Strand,E-score
ATATCTGG,-0.235
AAAGCACG,-0.148
GTCCAGAA,-0.167

# Study 3
# Target: Fragile X messenger ribonucleoprotein 1, C-terminal low-complexity region (Fmr1, Mus musculus, UniProt P35922)
# Method: RNA Bind-n-Seq
# Form: RNA
# Medium: in vitro
# Tested at: 200 nM
# Setting: whole 134-nt RNA, ends assumed
# With: 150 mM KCl
# Reference: input library
# Direction: higher = stronger binding
Strand,log2 enrichment
GGGAGUUCUACAGUCCGACGAUCCACAGACAACACGCACCCACACAGACACAGAGGGAAGGGGUUGGGAUGGGGACAGGGUGCACAGCAGGGCGGGGUCGGACCCCAGCCCCUUGGAAUUCUCGGGUGUCAAGG,1.38
GGGAGUUCUACAGUCCGACGAUCAAGUCCUGUGCUACACAUCGUAUGUACCGAAUCGGGGAAAGGGGUGGGGAAAGGGGAAAGUAUUAUGUUACGCCGUUCGGAUCUGCACUUUGGAAUUCUCGGGUGUCAAGG,0.617
GGGAGUUCUACAGUCCGACGAUCGUCCUGUGCUACACAUCGUAUGUACCGAAUCGGUUUUUGGGGUUUUUGGGUUUUUGGGGAAAGUAUUAUGUUACGCCGUUCGGAUCUGCAUGGAAUUCUCGGGUGUCAAGG,0.102

# Single results of other studies
Substance,target,assay,system,conditions,how to read,endpoint,value
"PhoQ, residues 284 288 289 292 302 303 AANNSF","PhoP, residues 12 14 15 18 19 DLLYY (Escherichia coli, UniProt P23836)","Sort-seq, refers to: YFP reporter",E. coli,"PhoQ-PhoP variant library, with: 10 µM Mg2+","reference: high Mg2+ state, higher = stronger signaling",fold induction,2.49

# Some of these lines once more (study 1):
Strand,fluorescence intensity [a.u.]
CTAACGAAGGTTTGTCACTCCACTTACAAGCCAAGTGTCTTGATTCGCTTGACGCTGCTG,88
